Measurements pooled from the literature.
Protocols differ between the studies behind these lines. ± marks the error that the study gave.

CCCOc1ccc([C@H]2CNC(=O)N2c2ccc3[nH]cnc3c2)cc1  apparent terminal half-life (human volunteers fed, plasma; oral tablet, 200 mg single dose, crossover, geometric mean): 3.6 h
NC[C@@]1(CC(=O)O)[C@@H]2CC[C@H]3C[C@@H]2[C@@H]1C3  apparent clearance (human, severe renal impairment, plasma; oral, 20 mg single dose, geometric mean): 3 L/h
O=C(Nc1nc2cccc(-c3ccc(CN4CCS(=O)(=O)CC4)cc3)n2n1)C1CC1  apparent peripheral volume (population PK model estimate; human; oral, dose not given): 34.3 L
NC(=O)N1c2ccccc2CC(=O)c2ccccc21  apparent clearance (population PK modelling; human patients, plasma; oral, weight-scaled, no back-conversion): 133 L/h
COC(=O)N[C@@H](C)CNc1nccc(-c2cn(C(C)C)nc2-c2cc(Cl)cc(NS(C)(=O)=O)c2F)n1  apparent volume Vz/F (human, plasma; oral, 50 mg, single dose alone; arithmetic mean): 160 ± 68.8 L
C[C@@]1(c2cc(NC(=O)c3ccc(C#N)cn3)ccc2F)C=CSC(N)=N1  apparent clearance CL/F (elderly humans, both sexes, plasma; oral, 150 mg single dose, mean): 11.3 L/h
C[C@H](Cn1cnc2c(N)ncnc21)OCP(=O)(O)O  apparent clearance (population PK model; human, plasma; oral, reduced model estimate): 43.2 L/h
CC(C)(C)OC[C@@H]1C(=O)NCCN1C(=O)C[C@H](N)Cc1cc(F)c(F)cc1F  apparent oral clearance at steady state (human, plasma; oral, dose not given, 1, compound alone): 55.5 ± 12.8 L/h
COc1cc(C(=O)NC2CCN(C)CC2)c(F)cc1Nc1ncc(C(F)(F)F)c(Oc2cccc3c2C(=O)N(C)C3)n1  apparent oral clearance CL/F (human patients, plasma; oral, 10 mg single dose, geometric mean): 537 mL/min
Cn1cc(-c2cn3nccc3c(-c3cnn([C@]4(CC#N)C[C@@H](C#N)C4)c3)n2)cn1  apparent volume Vz/F (healthy humans fasted, plasma; 100 mg single dose, geometric mean): 2670 L
CC[C@@H]1CN(C(=O)NCC(F)(F)F)C[C@@H]1c1cnc2cnc3[nH]ccc3n12  apparent central volume (Vc/F) (population PK modelling; human; oral, dose not given, final model, outliers re-estimated): 156 L
CCCCC1=NC2(CCCC2)C(=O)N1Cc1ccc(-c2ccccc2S(=O)(=O)Nc2noc(C)c2C)c(COCC)c1  apparent clearance (CL/F) (healthy adult human volunteers; oral, 400 mg daily, 14 days multiple dosing): ~6.3 L/h
C[C@@H](Oc1ccc(S(C)(=O)=O)cc1C(=O)N1C[C@@H]2C[C@]2(c2cc(C(F)(F)F)on2)C1)C(F)(F)F  apparent clearance at steady state (young healthy humans, plasma; oral, 50 mg once daily, multiple dosing): 114 mL/min
C=CC(=O)N(C)CCOc1c(N)ncnc1-c1cc(F)cc(NC(=O)c2ccc(C3CC3)cc2F)c1C  apparent clearance CL/F (human, whole blood; oral, 60 mg, single ascending dose): 280 L/h
COc1ccc(-n2nc(C(N)=O)c3c2C(=O)N(c2ccc(N4CCCCC4=O)cc2)CC3)cc1  apparent peripheral volume (human, plasma; oral, dose not given, Full population PK model): 24.3 ± 1.93 L
CNC(=O)c1ccc(N2C(=S)N(c3ccc(C#N)c(C(F)(F)F)c3)C(=O)C2(C)C)cc1F  apparent intercompartmental clearance (population PK base model; human, male; oral): 21.2 L/h
Cl.[2H]C([2H])([2H])CC(=O)c1cnc(NC(=O)C2CC2)cc1Nc1cccc(-c2ncn(C([2H])([2H])[2H])n2)c1OC  apparent clearance (human, non-fasted; oral, 60 mg once daily, day 14, multiple dose, tablet, geometric mean): 14.7 L/h
Cc1nc(Nc2ncc(C(=O)Nc3c(C)cccc3Cl)s2)cc(N2CCN(CCO)CC2)n1  apparent oral clearance (human patients, plasma; oral, dose not given, day 42, median of combined dose levels): 2650 mL/min/m²

Repeated from above:
CC(C)(C)OC[C@@H]1C(=O)NCCN1C(=O)C[C@H](N)Cc1cc(F)c(F)cc1F  apparent oral clearance at steady state (human, plasma; oral, dose not given, 1, compound alone): 55.5 ± 12.8 L/h
NC(=O)N1c2ccccc2CC(=O)c2ccccc21  apparent clearance (population PK modelling; human patients, plasma; oral, weight-scaled, no back-conversion): 133 L/h
C[C@@]1(c2cc(NC(=O)c3ccc(C#N)cn3)ccc2F)C=CSC(N)=N1  apparent clearance CL/F (elderly humans, both sexes, plasma; oral, 150 mg single dose, mean): 11.3 L/h
